Measured values from different studies.
Numbered parts are unrelated; each lists some results of a single study.
Sequence of UniProt P29320 (whole entry, looked up): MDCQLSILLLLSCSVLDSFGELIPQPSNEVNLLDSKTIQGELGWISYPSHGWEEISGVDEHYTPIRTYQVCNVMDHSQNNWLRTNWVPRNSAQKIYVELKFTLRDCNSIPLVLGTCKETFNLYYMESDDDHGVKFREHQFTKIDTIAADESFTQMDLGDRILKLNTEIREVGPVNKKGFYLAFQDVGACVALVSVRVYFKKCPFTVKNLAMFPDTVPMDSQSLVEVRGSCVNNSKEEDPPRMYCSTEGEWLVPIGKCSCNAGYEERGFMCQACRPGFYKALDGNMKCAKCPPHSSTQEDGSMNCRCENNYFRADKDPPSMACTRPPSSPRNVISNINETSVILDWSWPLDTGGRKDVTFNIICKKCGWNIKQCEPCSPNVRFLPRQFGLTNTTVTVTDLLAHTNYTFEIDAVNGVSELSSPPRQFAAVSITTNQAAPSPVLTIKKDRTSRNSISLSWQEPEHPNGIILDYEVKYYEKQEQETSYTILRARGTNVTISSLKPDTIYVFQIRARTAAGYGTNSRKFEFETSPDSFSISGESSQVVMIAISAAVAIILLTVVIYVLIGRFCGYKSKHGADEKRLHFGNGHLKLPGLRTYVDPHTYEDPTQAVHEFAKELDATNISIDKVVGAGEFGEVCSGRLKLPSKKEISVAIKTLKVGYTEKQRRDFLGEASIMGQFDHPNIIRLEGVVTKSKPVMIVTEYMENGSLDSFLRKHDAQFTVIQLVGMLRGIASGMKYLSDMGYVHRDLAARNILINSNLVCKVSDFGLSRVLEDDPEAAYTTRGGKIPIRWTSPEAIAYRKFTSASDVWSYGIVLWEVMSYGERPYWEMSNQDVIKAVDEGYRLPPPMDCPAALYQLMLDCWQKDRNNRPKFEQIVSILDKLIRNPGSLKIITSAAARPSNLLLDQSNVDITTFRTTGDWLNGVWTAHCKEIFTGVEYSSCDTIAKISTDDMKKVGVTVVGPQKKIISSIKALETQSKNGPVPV
Sequence of UniProt P57058 (whole entry, looked up): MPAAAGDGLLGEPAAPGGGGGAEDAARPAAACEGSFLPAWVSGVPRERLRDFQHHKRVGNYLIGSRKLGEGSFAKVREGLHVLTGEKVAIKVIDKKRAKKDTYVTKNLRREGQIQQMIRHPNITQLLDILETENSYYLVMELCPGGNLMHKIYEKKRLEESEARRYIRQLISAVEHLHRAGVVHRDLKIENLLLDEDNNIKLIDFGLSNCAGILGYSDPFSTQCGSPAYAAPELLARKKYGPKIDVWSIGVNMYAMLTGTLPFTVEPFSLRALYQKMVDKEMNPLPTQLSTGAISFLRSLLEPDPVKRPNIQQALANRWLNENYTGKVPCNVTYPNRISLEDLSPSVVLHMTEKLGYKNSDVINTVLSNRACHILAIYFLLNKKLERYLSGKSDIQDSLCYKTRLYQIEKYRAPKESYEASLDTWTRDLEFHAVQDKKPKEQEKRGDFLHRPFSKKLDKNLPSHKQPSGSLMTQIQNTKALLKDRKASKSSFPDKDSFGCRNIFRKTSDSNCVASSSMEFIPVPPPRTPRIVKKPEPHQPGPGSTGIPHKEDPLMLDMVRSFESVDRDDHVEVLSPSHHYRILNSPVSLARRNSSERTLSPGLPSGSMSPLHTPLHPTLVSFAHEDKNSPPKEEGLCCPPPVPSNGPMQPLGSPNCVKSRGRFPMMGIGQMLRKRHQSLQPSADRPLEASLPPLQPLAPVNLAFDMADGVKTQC
Sequence of UniProt P24723 (whole entry, looked up): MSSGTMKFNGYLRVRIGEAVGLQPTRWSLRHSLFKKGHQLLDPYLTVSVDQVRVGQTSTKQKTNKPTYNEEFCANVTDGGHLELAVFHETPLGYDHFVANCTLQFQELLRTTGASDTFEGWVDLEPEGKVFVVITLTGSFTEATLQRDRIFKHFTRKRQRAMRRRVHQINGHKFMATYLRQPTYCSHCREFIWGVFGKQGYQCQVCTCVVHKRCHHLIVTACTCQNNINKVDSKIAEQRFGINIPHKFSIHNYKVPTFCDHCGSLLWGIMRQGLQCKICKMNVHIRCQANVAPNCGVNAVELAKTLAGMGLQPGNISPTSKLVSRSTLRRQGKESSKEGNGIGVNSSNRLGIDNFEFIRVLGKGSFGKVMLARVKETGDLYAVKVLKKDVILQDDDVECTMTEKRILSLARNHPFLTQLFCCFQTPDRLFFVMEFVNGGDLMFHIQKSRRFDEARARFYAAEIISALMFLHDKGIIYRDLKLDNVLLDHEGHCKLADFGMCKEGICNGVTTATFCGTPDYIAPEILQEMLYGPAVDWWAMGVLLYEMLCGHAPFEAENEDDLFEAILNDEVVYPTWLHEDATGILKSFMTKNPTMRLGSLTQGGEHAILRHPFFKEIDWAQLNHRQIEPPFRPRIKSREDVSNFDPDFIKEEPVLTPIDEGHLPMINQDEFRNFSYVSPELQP
Sequence of UniProt Q8N4C8 (whole entry, looked up): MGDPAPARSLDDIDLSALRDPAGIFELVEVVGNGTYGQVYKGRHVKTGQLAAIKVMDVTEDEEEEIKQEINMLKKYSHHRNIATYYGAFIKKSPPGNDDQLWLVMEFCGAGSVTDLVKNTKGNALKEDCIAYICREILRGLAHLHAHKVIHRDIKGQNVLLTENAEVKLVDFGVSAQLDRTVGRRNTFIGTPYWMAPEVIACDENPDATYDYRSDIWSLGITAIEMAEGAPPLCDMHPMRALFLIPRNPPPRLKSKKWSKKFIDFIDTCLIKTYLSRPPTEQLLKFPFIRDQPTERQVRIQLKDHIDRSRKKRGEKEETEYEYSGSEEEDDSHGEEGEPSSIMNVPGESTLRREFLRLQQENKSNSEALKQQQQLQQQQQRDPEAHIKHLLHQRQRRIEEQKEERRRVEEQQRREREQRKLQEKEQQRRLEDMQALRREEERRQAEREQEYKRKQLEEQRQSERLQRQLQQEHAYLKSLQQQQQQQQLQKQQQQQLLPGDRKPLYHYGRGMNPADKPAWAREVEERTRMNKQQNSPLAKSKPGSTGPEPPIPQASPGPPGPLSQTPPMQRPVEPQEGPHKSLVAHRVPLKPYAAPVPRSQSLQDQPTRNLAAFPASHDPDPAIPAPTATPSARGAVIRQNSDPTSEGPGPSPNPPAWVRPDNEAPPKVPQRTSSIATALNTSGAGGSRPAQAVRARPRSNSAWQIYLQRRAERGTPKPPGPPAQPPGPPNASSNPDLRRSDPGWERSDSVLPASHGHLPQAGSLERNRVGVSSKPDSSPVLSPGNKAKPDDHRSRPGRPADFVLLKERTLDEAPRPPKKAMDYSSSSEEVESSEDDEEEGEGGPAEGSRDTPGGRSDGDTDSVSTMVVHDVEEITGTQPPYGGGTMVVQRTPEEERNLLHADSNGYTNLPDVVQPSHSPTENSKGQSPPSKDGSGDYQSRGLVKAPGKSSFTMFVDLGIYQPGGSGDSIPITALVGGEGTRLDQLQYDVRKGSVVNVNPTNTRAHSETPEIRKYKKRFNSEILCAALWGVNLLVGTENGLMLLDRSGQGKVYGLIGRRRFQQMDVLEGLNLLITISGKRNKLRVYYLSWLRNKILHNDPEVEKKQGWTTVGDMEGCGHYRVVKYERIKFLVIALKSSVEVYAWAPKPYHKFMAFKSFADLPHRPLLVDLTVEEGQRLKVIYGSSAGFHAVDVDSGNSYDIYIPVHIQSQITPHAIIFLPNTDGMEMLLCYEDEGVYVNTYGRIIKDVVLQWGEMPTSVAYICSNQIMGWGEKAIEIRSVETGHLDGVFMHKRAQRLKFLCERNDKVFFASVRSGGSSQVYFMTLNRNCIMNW
Sequence of UniProt P15735 (whole entry, looked up): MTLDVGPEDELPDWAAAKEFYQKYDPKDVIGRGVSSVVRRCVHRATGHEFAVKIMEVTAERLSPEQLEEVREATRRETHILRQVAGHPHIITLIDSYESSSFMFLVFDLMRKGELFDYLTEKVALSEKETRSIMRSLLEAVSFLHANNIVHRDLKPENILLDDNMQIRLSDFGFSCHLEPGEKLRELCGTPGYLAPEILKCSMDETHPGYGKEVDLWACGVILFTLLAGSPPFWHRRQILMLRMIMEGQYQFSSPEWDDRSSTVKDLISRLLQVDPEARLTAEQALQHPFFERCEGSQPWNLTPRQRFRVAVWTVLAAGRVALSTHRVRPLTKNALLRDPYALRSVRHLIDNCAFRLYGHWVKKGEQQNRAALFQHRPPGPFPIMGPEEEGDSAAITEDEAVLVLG

Block 1
Target: Ephrin type-A receptor 2 (EPHA2, Homo sapiens, UniProt P29317)
Sequence of UniProt P29317 (whole entry, looked up): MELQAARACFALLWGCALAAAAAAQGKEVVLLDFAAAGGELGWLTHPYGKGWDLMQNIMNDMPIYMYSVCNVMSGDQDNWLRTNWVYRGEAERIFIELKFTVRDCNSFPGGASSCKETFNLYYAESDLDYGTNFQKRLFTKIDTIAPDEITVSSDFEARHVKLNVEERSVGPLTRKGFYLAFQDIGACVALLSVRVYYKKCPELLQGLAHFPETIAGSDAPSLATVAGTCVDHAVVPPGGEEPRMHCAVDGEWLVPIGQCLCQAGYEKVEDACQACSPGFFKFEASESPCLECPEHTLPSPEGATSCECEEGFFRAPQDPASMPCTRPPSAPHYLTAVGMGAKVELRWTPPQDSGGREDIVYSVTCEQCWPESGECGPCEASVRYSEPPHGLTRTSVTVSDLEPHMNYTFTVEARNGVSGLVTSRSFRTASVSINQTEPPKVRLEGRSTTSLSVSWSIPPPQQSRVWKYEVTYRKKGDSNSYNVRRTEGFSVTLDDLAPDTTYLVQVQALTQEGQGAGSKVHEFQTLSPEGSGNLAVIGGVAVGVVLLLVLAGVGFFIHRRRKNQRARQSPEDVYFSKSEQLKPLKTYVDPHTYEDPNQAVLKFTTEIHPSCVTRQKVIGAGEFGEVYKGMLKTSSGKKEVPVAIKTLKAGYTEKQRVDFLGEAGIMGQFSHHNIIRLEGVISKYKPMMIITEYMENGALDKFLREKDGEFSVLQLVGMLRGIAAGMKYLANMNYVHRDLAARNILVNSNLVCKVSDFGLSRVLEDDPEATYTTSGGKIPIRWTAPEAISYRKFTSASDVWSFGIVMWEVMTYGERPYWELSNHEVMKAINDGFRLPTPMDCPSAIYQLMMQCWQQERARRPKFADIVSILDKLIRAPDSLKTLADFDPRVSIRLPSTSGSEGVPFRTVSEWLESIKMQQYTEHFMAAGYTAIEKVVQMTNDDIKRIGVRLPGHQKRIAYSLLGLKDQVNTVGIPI
Read-out: enzyme activity
Action: inhibitor
Concentration: 0.5 µM
Relative to: control
| Structure (SMILES) | remaining activity |
| --- | --- |
| CN(C)C[C@H]1CCn2c(c(C3=C(c4cn(C)c5ccccc45)C(=O)NC3=O)c3ccccc32)C1 | 102% |
| Ic1cccc(CSc2nnc(-c3ccncc3)o2)c1 | 102% |
| Cc1cc2ncc(-c3ccccc3)nc2cc1C | 103% |
| c1ccc(-c2[nH]ncc2-c2ccnc3ccccc23)nc1 | 103% |
| CCN(CC)CCNC(=O)c1c(C)[nH]c(/C=C2\C(=O)Nc3ccc(Cl)cc32)c1C | 93.5% |
| O=C(Nc1cccc(Nc2nccc(Nc3cccc(C(F)(F)F)c3)n2)c1)C1CC1 | 87.3% |
| O=C1c2ccccc2-c2n[nH]c3cccc1c23 | 89% |
| N#C/C(=C\c1ccc(O)c(O)c1)C(=O)NCc1ccccc1 | 105% |
| Nc1cccc(-c2cc3c(Oc4cccc(O)c4)ncnc3[nH]2)c1 | 48.2% |
| COc1cc2ncnc(Nc3ccc(O)c(Br)c3)c2cc1OC | 80.6% |
| O=C(NC(NC(=S)Nc1ccc(F)c([N+](=O)[O-])c1)C(Cl)(Cl)Cl)C(c1ccccc1)c1ccccc1 (stereo not drawn) | 103% |
| O=C1C(Cl)=C(N2C(=O)CCC2=O)C(=O)c2ccccc21 | 107% |
| COc1cc2ncnc(Nc3cccc(Cl)c3)c2cc1OC | 85.2% |
| CCN(CC)C(=O)c1ccc(Nc2nc(OCC3CCCCC3)c3[nH]cnc3n2)cc1 | 90.6% |
| O=c1cc(-c2cccc3c2Sc2ccccc2S3)oc(N2CCOCC2)c1 | 96.2% |
| CCN(CC)CCNC(=O)c1c(C)[nH]c(/C=C2\C(=O)Nc3ccc(F)cc32)c1C | 83.6% |
| CCOc1nc(NC(=O)Cc2cc(OC)ccc2OC)cc(N)c1C#N | 103% |
| CN([C@@H](Cc1ccc(OS(=O)(=O)c2cccc3cnccc23)cc1)C(=O)N1CCN(c2ccccc2)CC1)S(=O)(=O)c1cccc2cnccc12 | 101% |
| c1ccc(-c2cnc(Nc3ccc(OCCN4CCCC4)cc3)s2)cc1 | 108% |
| Cc1nc2cc3nc(-c4cccs4)cnc3cc2n1C | 107% |
| Cn1nc2c3c(cccc31)C(=O)c1ccccc1-2 | 104% |
| COc1cc2c(cc1OC)-c1[nH]nc(Nc3cccc(F)c3)c1C2 | 93.8% |

Block 2
Structure (SMILES): O=C1CCc2cc(Nc3cc(OC4CCOCC4)c([N+](=O)[O-])cc3Cl)ccc2N1
Method: competition with immobilised ligand
Concentration: 1 µM
| target | read-out | remaining binding [%] |
| --- | --- | --- |
| Mitogen-activated protein kinase kinase kinase 2 (MAP3K2, Homo sapiens, UniProt Q9Y2U5) | cell-free assay | 100 |
| Mitogen-activated protein kinase 13 (MAPK13, Homo sapiens, UniProt O15264) | cell-free assay | 100 |
| Serine/threonine-protein kinase D1 (PRKD1, Homo sapiens, UniProt Q15139) | cell-free assay | 87 |
| RAC-gamma serine/threonine-protein kinase (AKT3, Homo sapiens, UniProt Q9Y243) | cell-free assay | 94 |
| Tyrosine-protein kinase ABL1, phosphorylated (ABL1, Homo sapiens, UniProt P00519, E255K) | binding | 88 |
| Hormonally up-regulated neu tumor-associated kinase (HUNK, Homo sapiens, UniProt P57058) | cell-free assay | 93 |
| Testis-specific serine/threonine-protein kinase 1 (TSSK1B, Homo sapiens, UniProt Q9BXA7) | cell-free assay | 85 |
| Phosphatidylinositol 4,5-bisphosphate 3-kinase catalytic subunit gamma isoform (PIK3CG, Homo sapiens, UniProt P48736) | cell-free assay | 75 |
| Ephrin type-A receptor 3 (EPHA3, Homo sapiens, UniProt P29320) | cell-free assay | 83 |
| Misshapen-like kinase 1 (MINK1, Homo sapiens, UniProt Q8N4C8) | cell-free assay | 83 |
| Tyrosine-protein kinase ABL1, phosphorylated (ABL1, Homo sapiens, UniProt P00519, T315I) | cell-free assay | 80 |
| Tyrosine-protein kinase Fyn (FYN, Homo sapiens, UniProt P06241) | cell-free assay | 64 |
| Protein kinase C eta type (PRKCH, Homo sapiens, UniProt P24723) | cell-free assay | 86 |
| Mitogen-activated protein kinase 15 (MAPK15, Homo sapiens, UniProt Q8TD08) | cell-free assay | 96 |
| Phosphorylase b kinase gamma catalytic chain, liver/testis isoform (PHKG2, Homo sapiens, UniProt P15735) | cell-free assay | 100 |
| NUAK family SNF1-like kinase 2 (NUAK2, Homo sapiens, UniProt Q9H093) | cell-free assay | 89 |
| Serine/threonine-protein kinase 25 (STK25, Homo sapiens, UniProt O00506) | cell-free assay | 100 |
| Tyrosine-protein kinase ITK/TSK (ITK, Homo sapiens, UniProt Q08881) | cell-free assay | 95 |
| Mitogen-activated protein kinase 12 (MAPK12, Homo sapiens, UniProt P53778) | cell-free assay | 100 |
| Fibroblast growth factor receptor 3 (FGFR3, Homo sapiens, UniProt P22607, G697C) | cell-free assay | 79 |
| Mitogen-activated protein kinase kinase kinase 13 (MAP3K13, Homo sapiens, UniProt O43283) | cell-free assay | 91 |

Block 3
Cell line: A-375
Concentration: 100 µM
Time: 36 h
| Compound | viability |
| --- | --- |
| COC(=O)C1=CO[C@@H](O)[C@@H]2C(CO)=CC[C@H]12 | 32.3% |
| COc1cc2c(cc1Cc1cccc(Cl)c1F)c(=O)c(C(=O)O)cn2[C@H](CO)C(C)C | 73.5% |
| O=C(c1ccc(F)cc1)C1CCN(CCn2c(=O)[nH]c3ccccc3c2=O)CC1 | 76.5% |
| Cc1nc(Nc2ccc(F)cc2)nc(N2CCc3ccccc3C2C)c1C (stereo not drawn) | 0.838% |
| CN(C)CCC=C1c2ccccc2C=Cc2ccccc21 | -0.0961% |
| CC[C@H]1OC(=O)[C@H](C)[C@@H](O[C@H]2C[C@@](C)(OC)[C@@H](O)[C@H](C)O2)[C@H](C)[C@@H](O[C@@H]2O[C@H](C)C[C@H](N(C)C)[C@H]2O)[C@](C)(OC)C[C@@H](C)C(=O)[C@H](C)[C@@H](O)[C@]1(C)O | 97% |
| CCCCC1=NC2(CCCC2)C(=O)N1Cc1ccc(-c2ccccc2-c2nnn[nH]2)cc1 | 108% |
| CC(C)COc1ccc(CNC(=O)N(Cc2ccc(F)cc2)C2CCN(C)CC2)cc1 | 0.404% |
| CC1CC(OC(=O)C(O)c2ccccc2)CC(C)(C)C1 (stereo not drawn) | -1.35% |
| c1cnc2cc3c(cc2n1)[C@@H]1CNC[C@H]3C1 | 90.7% |
| NCCCC[C@H](NC(=O)[C@@H]1CCCN1C(=O)[C@@H]1CSSC[C@H](N)C(=O)N[C@@H](Cc2ccccc2)C(=O)N[C@@H](Cc2ccccc2)C(=O)N[C@@H](CCC(N)=O)C(=O)N[C@@H](CC(N)=O)C(=O)N1)C(=O)NCC(N)=O | 88.6% |
| CC(C)(C)C(=O)C(Oc1ccc(Cl)cc1)n1ccnc1 (stereo not drawn) | 86% |
| CC(=O)Nc1cccc(-n2c(=O)n(C3CC3)c(=O)c3c(Nc4ccc(I)cc4F)n(C)c(=O)c(C)c32)c1 | 57.2% |

Other studies, line by line
| Compound | matrix | quantity | value |
| --- | --- | --- | --- |
| CCC[C@H]1NC(=O)CSC[C@@H](C(=O)OCC)N(C)C(=O)[C@H](CC(C)C)NC(=O)[C@@H](C)N(C)C(=O)[C@@H](CC(C)C)NC(=O)[C@H](C)N(C)C(=O)[C@@H]2CCCN2C(=O)[C@@H](CC(C)C)NC(=O)CN(C)C1=O | hydrocarbon/water | logD | 0.158 |

Repeated from above (block 1):
| Structure (SMILES) | remaining activity |
| --- | --- |
| COc1cc2ncnc(Nc3cccc(Cl)c3)c2cc1OC | 85.2% |
| CCN(CC)C(=O)c1ccc(Nc2nc(OCC3CCCCC3)c3[nH]cnc3n2)cc1 | 90.6% |
| O=c1cc(-c2cccc3c2Sc2ccccc2S3)oc(N2CCOCC2)c1 | 96.2% |
| CCN(CC)CCNC(=O)c1c(C)[nH]c(/C=C2\C(=O)Nc3ccc(F)cc32)c1C | 83.6% |
| CCOc1nc(NC(=O)Cc2cc(OC)ccc2OC)cc(N)c1C#N | 103% |
| CN([C@@H](Cc1ccc(OS(=O)(=O)c2cccc3cnccc23)cc1)C(=O)N1CCN(c2ccccc2)CC1)S(=O)(=O)c1cccc2cnccc12 | 101% |
| c1ccc(-c2cnc(Nc3ccc(OCCN4CCCC4)cc3)s2)cc1 | 108% |
| Cc1nc2cc3nc(-c4cccs4)cnc3cc2n1C | 107% |
| Cn1nc2c3c(cccc31)C(=O)c1ccccc1-2 | 104% |
